# Results pooled from the literature.
# Each numbered part is a random draw from the data of one study; scales do not carry over between parts.

# Series 1
# Target: Interferon regulatory factor 5, full length, phosphomimetic (IRF5, Homo sapiens, UniProt Q13568-2, residues 1-514, S451D/S453D/S456D/S462D)
# Method: protein-binding microarray
# Form: double-stranded DNA, one strand shown
# Sample: in vitro
# Tested at: 940 nM top
# Setting: 60-bp whole probe
# With: salmon DNA 0.4 mg/ml
# Relative to: random background probes
# Direction: higher = stronger binding
# Shared flanks, not repeated: GCCTAGCAC … GTCTTGATTCGCTTGACGCTGCTG
Sequence,fitted relative affinity
TTAGGACCGGGACTGGGTTAGTGCTAG,-0.332 z-score
GACAATCTCAGTTTCGAGACGTGCTAG,4.4 z-score
TTAGGACTGCTACAGCTTTAGTGCTAG,-0.68 z-score
TTAGGTATCGGTCTCGCTTAGTGCTAG,9.93 z-score
GACGGTTTCGGGACTGGGGATGTGCTA,6.58 z-score
TTAGGTTTCGGTCCCGGTTAGTGCTAG,15 z-score

# Series 2
# Target: Sal-like protein 4, full length isoform A (SALL4, Homo sapiens, UniProt Q9UJQ4, residues 1-1053)
# Chain of UniProt Q9UJQ4 (whole entry, looked up): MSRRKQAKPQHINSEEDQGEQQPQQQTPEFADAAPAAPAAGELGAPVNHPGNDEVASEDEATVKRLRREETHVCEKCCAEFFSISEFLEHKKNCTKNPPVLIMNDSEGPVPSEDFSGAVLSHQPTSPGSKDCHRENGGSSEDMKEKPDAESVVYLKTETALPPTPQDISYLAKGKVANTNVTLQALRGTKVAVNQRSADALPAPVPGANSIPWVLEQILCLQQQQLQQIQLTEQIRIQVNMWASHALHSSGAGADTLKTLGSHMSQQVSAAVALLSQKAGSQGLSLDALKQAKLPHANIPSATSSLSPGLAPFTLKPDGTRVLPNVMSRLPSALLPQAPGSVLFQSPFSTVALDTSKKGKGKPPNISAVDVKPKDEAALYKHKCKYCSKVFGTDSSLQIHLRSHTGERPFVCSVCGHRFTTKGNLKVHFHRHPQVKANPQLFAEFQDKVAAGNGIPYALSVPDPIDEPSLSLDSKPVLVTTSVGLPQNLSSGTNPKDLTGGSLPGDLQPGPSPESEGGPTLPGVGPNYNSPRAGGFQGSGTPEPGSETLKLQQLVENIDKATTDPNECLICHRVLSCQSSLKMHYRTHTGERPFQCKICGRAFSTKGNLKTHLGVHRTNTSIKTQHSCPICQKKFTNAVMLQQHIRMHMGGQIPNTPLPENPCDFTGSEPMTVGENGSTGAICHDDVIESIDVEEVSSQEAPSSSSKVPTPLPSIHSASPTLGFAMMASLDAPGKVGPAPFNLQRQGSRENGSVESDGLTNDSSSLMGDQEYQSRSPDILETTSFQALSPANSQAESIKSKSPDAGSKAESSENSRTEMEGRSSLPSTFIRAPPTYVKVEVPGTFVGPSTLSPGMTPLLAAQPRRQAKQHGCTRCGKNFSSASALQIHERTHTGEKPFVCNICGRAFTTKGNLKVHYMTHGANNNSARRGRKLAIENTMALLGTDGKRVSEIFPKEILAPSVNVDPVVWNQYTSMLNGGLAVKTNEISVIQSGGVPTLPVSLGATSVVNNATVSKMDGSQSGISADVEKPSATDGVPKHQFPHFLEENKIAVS
# Method: universal PBM
# Form: double-stranded DNA, one strand shown
# Sample: in vitro
# Tested at: 600 nM
# Setting: 8-mer, flanks averaged, mean of replicates
# Direction: higher = stronger binding
Sequence,E-score
AATCTATC,0.113
GACAGAGC,-0.1
ATACGACG,0.144
CTTATCCA,0.103

# Series 3
# Target: PABPC1L2, full length, GST fusion (mouse, UniProt A0ABA7IW68)
# Method: RNAcompete
# Form: RNA
# Sample: in vitro
# Tested at: 20 nM
# Setting: 7-mer, probes averaged, single round
# Relative to: mean of 7-mers
# Direction: higher = stronger binding
# Residues (chain): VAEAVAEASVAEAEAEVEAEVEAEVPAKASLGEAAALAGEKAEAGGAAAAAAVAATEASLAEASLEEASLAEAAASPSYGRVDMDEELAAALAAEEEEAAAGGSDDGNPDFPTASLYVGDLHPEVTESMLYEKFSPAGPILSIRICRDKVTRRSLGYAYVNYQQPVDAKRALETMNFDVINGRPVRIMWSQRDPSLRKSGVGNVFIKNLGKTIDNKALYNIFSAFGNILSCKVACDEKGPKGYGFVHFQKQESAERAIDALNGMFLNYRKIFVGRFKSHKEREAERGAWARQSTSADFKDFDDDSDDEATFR
Sequence,7-mer Z-score
GAAAACA,6.01
GUAUGAG,-0.226
UACCUGC,-0.336
AGGUUCC,-0.186
AAGGGAC,0.356

# Mixed results
Molecule,target,test,system,setting,scale,quantity,value
"PhoQ, residues 284 288 289 292 302 303 SVTLVV","PhoP, residues 12 14 15 18 19 SGWQI (Escherichia coli, UniProt P23836)","Sort-seq, item: YFP reporter",E. coli,"PhoQ-PhoP variant library, with: 10 µM Mg2+","relative to: high Mg2+ state, higher = stronger signaling",fold induction,8.66

# For quick reference, copied from above (series 1):
Sequence,fitted relative affinity
TTAGGTATCGGTCTCGCTTAGTGCTAG,9.93 z-score
GACGGTTTCGGGACTGGGGATGTGCTA,6.58 z-score
